# Experimental data collected from several papers.
# Lines come from different studies, so protocols differ. Several values in a cell are separate wells, animals, samples, runs or records. ± gives the spread as reported.
SMILES,cell line,test,system,setting,scale,endpoint,result
C[C@@H]1O[C@@H](O[C@H]2C[C@@H](O)[C@]3(CO)[C@H]4[C@H](O)C[C@]5(C)[C@@H](C6=CC(=O)OC6)CC[C@]5(O)[C@@H]4CC[C@]3(O)C2)[C@H](O)[C@H](O)[C@H]1O,human iPSC-derived cardiomyocytes,"MyBP-C/MYH ratio, plate-normalised SD score",,"concentration not given, primary screen",direction not given,activity score,13.3
CN1CCN(S(=O)(=O)c2cc([N+](=O)[O-])ccc2N(CCOS(C)(=O)=O)CCOS(C)(=O)=O)CC1,sample F T-ALL PDX cells,cell viability,ex vivo,,,IC50,38.4 nM
O=c1[nH]c2ccccc2n1C1CCN(Cc2ccc(-c3nc4cc5[nH]cnc5cc4nc3-c3ccccc3)cc2)CC1,HeLa expressing Ub(G76V)-GFP,"Ub(G76V)-GFP degradation, inhibitor, cycloheximide chase",,12 µM,,inhibition,99%
CC(C)N1CCC(NC2CCN(c3cccc(-c4cc5cc(F)ccc5[nH]4)c3)CC2)CC1,NCI-H322M,,,,,CC50,6280 nM
COc1cc(CCC[P+](c2ccccc2)(c2ccccc2)c2ccccc2)c(OC)c2c1OCO2.[I-],NCI-H23,SRB,,,,TGI,-4.99 log M
O=S(=O)(c1ccc(O)cc1)c1ccc(O)cc1,HepG2 spheroids,Hoechst flow cytometry,,"1 µM, 96 h",,G2 phase cells,15.4 ± 5.04%
CN[C@@H]1C[C@H]2O[C@@](C)([C@@H]1OC)n1c3ccccc3c3c4c(c5c6ccccc6n2c5c31)C(=O)NC4,iCell Cardiomyocytes (hiPSC-derived),xCELLigence Cardio impedance,,"concentration not given, 2 h",baseline: control,beat rate,0%
CS(=O)(=O)c1ccc(-c2nnc(/C=C/c3nnc(-c4ccc(C#N)cc4)o3)n2-c2ccccc2Cl)nc1,Apc Q1405X mutant organoids,"organoid viability, AlamarBlue",mouse small intestinal organoids,"6 days, Tnks genotype Tnks-/-",,Hill slope,-2.21
C[C@]12CC[C@H](O)C[C@H]1CC[C@@H]1[C@@H]2CC[C@]2(C)[C@@H](C3=CC(=O)OC3)[C@@H](O)C[C@]12O,human iPSC-derived cardiomyocytes,"MyBP-C/MYH ratio, plate-normalised SD score",,"concentration not given, primary screen",direction not given,activity score,5.9
O=c1cc(-c2ccc(O)cc2)oc2cc(O)cc(O)c12,induced SH-SY5Y Aβ-GFP cells,,,5 µM,,neurite branch number,1.8 to 2.1
COc1c(CCC[P+](c2ccccc2)(c2ccccc2)c2ccccc2)cc2c(c1OC)OCO2.[I-],NCI-H23,SRB,,,,GI50,-5.66 log M
CN1CCN(C2(CNC3CCN(c4cccc(-c5cc6cc(F)ccc6[nH]5)c4)CC3)CCC2)CC1,NCI-H322M,,,,,GI50,1870 nM
Cc1cnc2ccc3c(nc(N)n3C)c2n1,BALB/c 3T3,,,1 µM,baseline: solvent control,relative colony forming efficiency,99 ± 10%
CC(C)=CCC[C@](C)(O)[C@H]1CC[C@]2(C)[C@@H]1[C@H](O)C[C@@H]1[C@@]3(C)CC[C@H](O)C(C)(C)[C@@H]3[C@@H](O[C@@H]3O[C@H](CO)[C@@H](O)[C@H](O)[C@H]3O)C[C@]12C,HepG2,"cell viability, CCK-8",,12.5 µM,higher = more viable cells,optical density,1.16 a.u. and 1.28 a.u. and 1.32 a.u. and 1.26 a.u. and 1.17 a.u. and 1.3 a.u.
COc1c(C)c2c(c(O)c1C/C=C(\C)CCC(=O)O)C(=O)OC2,DLD-1,cell proliferation,colon cancer,,,IC50,407 nM
CC[C@H](C)[C@H](NC(=O)[C@H](CC(C)C)NC(=O)[C@H](C)NC(=O)[C@H](CC(C)C)NC(=O)[C@@H](N)Cc1ccccc1)C(=O)N[C@@H](CC(C)C)C(=O)N[C@@H](CCCNC(=N)N)C(=O)N[C@@H](CCCCN)C(=O)N[C@H](C(=O)N[C@H](C(=O)N[C@H](C(=O)N[C@@H](C)C(=O)N[C@@H](CC(C)C)C(=O)N[C@@H](CS)C(N)=O)[C@@H](C)O)C(C)C)[C@@H](C)CC,human red blood cells,,,pH 7.4,baseline: Triton X-100,EC50,16000 nM

# Excerpt of the above:
SMILES,cell line,test,system,setting,scale,endpoint,result
O=c1[nH]c2ccccc2n1C1CCN(Cc2ccc(-c3nc4cc5[nH]cnc5cc4nc3-c3ccccc3)cc2)CC1,HeLa expressing Ub(G76V)-GFP,"Ub(G76V)-GFP degradation, inhibitor, cycloheximide chase",,12 µM,,inhibition,99%
CC(C)N1CCC(NC2CCN(c3cccc(-c4cc5cc(F)ccc5[nH]4)c3)CC2)CC1,NCI-H322M,,,,,CC50,6280 nM
